Results from different studies.
Protocols differ between the studies behind these lines. ± gives the spread as reported.
TRPM channel TRPM_PZQ: TRPM channel TRPM_PZQ (Fasciola hepatica, UniProt A0A4E0RBW4)
Sequence of UniProt Q16819 (whole entry, looked up): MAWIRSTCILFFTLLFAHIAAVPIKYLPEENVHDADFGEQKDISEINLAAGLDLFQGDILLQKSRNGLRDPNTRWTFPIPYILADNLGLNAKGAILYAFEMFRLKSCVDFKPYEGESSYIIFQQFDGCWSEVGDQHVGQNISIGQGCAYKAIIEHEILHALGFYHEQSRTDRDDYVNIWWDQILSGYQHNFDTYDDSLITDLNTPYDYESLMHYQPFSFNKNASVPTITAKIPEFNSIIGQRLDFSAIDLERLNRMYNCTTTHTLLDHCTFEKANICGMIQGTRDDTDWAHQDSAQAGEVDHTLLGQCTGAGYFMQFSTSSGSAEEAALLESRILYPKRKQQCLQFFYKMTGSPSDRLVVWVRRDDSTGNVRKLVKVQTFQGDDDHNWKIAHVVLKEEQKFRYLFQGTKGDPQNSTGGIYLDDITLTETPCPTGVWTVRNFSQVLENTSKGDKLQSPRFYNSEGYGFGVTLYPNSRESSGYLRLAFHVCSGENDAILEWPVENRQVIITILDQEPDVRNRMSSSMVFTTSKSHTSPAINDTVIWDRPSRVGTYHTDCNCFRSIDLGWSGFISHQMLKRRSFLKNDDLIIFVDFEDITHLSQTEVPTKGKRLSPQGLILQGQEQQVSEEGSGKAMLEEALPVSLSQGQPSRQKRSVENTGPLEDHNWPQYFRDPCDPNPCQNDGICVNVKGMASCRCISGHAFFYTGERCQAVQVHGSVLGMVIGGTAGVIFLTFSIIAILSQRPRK
Sequence of UniProt P05413 (whole entry, looked up): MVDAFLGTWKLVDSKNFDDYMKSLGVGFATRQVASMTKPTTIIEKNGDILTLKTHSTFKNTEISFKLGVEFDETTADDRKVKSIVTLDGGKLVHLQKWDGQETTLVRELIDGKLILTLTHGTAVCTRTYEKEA
Sequence of UniProt P13569 (whole entry, looked up): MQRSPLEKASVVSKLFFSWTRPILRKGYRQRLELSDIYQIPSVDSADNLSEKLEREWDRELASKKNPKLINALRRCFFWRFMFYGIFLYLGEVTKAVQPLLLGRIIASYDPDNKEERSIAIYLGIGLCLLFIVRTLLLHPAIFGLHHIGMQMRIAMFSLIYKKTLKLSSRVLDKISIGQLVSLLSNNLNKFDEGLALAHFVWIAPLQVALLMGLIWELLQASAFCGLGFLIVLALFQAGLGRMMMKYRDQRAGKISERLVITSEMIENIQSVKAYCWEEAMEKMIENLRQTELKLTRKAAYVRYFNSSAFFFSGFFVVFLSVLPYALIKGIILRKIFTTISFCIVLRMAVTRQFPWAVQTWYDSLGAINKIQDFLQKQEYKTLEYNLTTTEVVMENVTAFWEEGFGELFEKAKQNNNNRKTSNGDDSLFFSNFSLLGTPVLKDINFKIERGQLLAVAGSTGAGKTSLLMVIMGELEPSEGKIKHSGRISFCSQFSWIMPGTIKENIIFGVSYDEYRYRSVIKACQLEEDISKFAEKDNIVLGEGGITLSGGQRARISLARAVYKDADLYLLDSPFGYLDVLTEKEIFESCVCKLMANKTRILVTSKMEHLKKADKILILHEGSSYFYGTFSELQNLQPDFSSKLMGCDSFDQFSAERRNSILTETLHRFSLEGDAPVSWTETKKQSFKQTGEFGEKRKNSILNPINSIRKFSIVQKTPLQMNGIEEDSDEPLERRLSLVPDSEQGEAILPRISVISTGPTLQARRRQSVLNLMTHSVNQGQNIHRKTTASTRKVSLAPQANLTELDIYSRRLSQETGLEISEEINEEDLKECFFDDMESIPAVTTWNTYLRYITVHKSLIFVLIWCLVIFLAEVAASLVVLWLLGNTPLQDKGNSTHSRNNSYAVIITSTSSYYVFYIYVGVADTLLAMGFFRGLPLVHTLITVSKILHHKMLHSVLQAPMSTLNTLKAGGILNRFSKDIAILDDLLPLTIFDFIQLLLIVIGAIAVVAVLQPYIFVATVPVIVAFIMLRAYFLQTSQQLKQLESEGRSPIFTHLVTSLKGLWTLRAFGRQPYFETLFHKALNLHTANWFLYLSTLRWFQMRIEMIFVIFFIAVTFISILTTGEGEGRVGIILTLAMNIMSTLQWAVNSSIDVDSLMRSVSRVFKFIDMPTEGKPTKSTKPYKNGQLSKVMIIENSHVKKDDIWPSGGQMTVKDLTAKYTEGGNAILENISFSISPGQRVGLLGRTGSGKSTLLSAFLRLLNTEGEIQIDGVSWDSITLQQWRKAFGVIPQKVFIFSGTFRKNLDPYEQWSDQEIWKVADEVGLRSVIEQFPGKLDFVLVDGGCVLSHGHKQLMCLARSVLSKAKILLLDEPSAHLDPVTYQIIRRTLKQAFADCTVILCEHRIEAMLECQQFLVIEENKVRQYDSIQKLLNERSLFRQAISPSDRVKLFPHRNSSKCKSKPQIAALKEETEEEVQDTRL
Sequence of UniProt P35462 (whole entry, looked up): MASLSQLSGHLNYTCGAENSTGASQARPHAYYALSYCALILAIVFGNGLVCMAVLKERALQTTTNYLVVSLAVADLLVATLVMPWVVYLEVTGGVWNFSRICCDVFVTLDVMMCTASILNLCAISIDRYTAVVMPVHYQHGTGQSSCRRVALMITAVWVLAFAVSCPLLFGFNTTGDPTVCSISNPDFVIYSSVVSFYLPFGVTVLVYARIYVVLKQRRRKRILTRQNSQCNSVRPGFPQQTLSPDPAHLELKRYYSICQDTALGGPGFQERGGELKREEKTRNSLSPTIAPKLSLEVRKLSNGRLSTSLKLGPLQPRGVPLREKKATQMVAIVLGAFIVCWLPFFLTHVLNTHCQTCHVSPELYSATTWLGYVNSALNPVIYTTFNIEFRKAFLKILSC
Sequence of UniProt P48546 (whole entry, looked up): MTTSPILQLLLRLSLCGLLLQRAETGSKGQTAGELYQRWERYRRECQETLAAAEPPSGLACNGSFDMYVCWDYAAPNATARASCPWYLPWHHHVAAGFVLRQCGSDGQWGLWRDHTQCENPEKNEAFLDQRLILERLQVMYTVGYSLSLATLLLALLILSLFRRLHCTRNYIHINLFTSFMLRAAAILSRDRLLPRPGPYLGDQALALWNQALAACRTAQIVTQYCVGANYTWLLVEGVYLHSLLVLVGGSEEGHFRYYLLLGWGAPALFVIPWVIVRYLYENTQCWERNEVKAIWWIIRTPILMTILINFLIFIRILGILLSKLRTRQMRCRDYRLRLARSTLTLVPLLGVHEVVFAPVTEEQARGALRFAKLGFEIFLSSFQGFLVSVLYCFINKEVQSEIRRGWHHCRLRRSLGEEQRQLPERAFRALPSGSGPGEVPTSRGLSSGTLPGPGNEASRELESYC
Sequence of UniProt P06401 (whole entry, looked up): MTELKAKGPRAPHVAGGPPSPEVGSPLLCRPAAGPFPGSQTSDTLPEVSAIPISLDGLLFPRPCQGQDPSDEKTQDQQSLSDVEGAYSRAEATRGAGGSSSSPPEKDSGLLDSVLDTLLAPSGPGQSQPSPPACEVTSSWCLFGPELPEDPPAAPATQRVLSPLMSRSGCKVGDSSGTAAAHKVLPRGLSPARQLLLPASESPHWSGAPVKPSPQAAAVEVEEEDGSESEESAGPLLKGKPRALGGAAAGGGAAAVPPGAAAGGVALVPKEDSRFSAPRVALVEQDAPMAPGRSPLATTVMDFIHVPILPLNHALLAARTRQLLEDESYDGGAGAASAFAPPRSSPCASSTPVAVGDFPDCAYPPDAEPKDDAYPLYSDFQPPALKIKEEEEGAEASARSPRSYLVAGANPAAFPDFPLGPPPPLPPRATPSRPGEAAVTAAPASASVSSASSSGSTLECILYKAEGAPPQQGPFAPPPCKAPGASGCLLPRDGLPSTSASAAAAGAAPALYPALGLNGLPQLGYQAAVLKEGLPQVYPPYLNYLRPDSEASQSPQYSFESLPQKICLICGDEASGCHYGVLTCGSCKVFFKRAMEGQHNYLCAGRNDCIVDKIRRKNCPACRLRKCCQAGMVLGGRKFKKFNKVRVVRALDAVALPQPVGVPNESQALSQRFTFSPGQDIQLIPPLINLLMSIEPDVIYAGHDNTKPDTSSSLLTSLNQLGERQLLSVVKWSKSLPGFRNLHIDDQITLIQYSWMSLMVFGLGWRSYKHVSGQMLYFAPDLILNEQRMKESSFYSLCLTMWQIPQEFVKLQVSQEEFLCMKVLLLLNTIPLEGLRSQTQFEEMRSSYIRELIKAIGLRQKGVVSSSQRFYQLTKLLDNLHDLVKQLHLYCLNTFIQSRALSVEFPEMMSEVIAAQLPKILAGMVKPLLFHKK
Sequence of UniProt P28072 (whole entry, looked up): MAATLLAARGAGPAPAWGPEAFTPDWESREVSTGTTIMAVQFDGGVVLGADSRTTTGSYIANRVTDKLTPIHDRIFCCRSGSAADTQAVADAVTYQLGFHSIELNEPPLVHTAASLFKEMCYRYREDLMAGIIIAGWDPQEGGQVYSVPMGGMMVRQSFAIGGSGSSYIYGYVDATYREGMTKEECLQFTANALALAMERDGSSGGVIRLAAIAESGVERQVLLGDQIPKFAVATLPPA

CC[C@H](C)[C@H](NC(=O)[C@H](CO)NC(=O)[C@H](Cc1ccc(O)cc1)NC(=O)[C@H](CC(=O)O)NC(=O)[C@H](CO)NC(=O)[C@@H](NC(=O)[C@H](Cc1ccccc1)NC(=O)[C@@H](NC(=O)CNC(=O)[C@@H](N)CCC(=O)O)[C@@H](C)O)[C@@H](C)CC)C(=O)N[C@@H](C)C(=O)N[C@@H](CCSC)C(=O)N[C@@H](CC(=O)O)C(=O)N[C@@H](CCCCN)C(=O)N[C@H](C(=O)N[C@@H](Cc1c[nH]cn1)C(=O)N[C@@H](CCC(N)=O)C(=O)N[C@@H](CCC(N)=O)C(=O)N[C@@H](CC(=O)O)C(=O)N[C@@H](Cc1ccccc1)C(=O)N[C@H](C(=O)N[C@@H](CC(N)=O)C(=O)N[C@@H](Cc1c[nH]c2ccccc12)C(=O)N[C@@H](CC(C)C)C(=O)N[C@@H](CC(C)C)C(=O)N[C@@H](C)C(=O)N[C@@H](CCC(N)=O)C(=O)N[C@@H](CCCCN)C(N)=O)C(C)C)[C@@H](C)CC gave an IC50 of 11.7 nM (GIPR (Homo sapiens, UniProt P48546); cAMP accumulation, antagonist; COS-7 transfected; 10 min preincubation, added: GIP(1-42) at 50 to 80% Emax).
O=C(O)CCCOc1ccc(F)cc1-c1cc(-c2ccccc2C(F)(F)F)n(-c2ccccc2)n1 has a Kd of 24 ± 7 nM (Fatty acid-binding protein, heart (Homo sapiens, UniProt P05413); binding).
With O=C(Nn1c(-c2cccc(Cl)c2)nc2ccccc2c1=O)c1ccccc1 the EC50 was 1080 ± 60 nM (TRPM channel TRPM_PZQ).
C=C(NC(=O)C(=C)NC(=O)c1csc(C2=NC3c4csc(n4)C4NC(=O)c5csc(n5)C(C(C)(O)C(C)O)NC(=O)C5CSC(=N5)C(=CC)NC(=O)C(C(C)O)NC(=O)c5csc(n5)C3(CC2)NC(=O)C(C)NC(=O)C(=C)NC(=O)C(Cc2ccc(O)cc2)NC(=O)C(C(C)CC)NC2C=Cc3c(C(C)O)cc(nc3C2O)C(=O)OC4C)n1)C(N)=O (stereo not drawn) gave an IC50 of 580 ± 90 nM (PSMB6 (Homo sapiens, UniProt P28072); caspase-like activity, inhibitor; purified human 20S proteasome; 37 °C, 15 min preincubation, added: Ac-Nle-Pro-Nle-Asp-AMC).
The Ki of O=C(Cc1c(-c2ccccc2)n[nH]c1-c1ccccc1)NO is reported as 1 nM (MEP1A (Homo sapiens, UniProt Q16819); enzyme activity, inhibitor).
For C[C@]12C[C@H](c3ccc(S(C)(=O)=O)cc3)C3=C4CC[C@@H](O)C=C4CC[C@H]3[C@@H]1CC[C@@]2(O)C(F)(F)C(F)(F)F, the IC50 was 5.3 nM (PGR (Homo sapiens, UniProt P06401); reporter gene, antagonist, luciferase).
The Ki of OC1(c2ccc(Cl)cc2)CCN(Cc2c[nH]c3ccccc23)CC1 is reported as 54.1 ± 13 nM (DRD3 (Homo sapiens, UniProt P35462)).
For O=C(Nn1c(-c2cccc(Cl)c2)nc2ccccc2c1=O)c1ccccc1F, the EC50 was 3000 ± 570 nM (TRPM channel TRPM_PZQ).
With C[C@@H](COc1ccc(F)cc1)C(=O)n1nc(N)c2ccc(CO)cc21 the EC50 was 64 ± 25 nM (CFTR (Homo sapiens, UniProt P13569); ion current, potentiator, inside-out patch clamp; fully phosphorylated, added: 3 mM ATP).

A few entries again:
With C[C@@H](COc1ccc(F)cc1)C(=O)n1nc(N)c2ccc(CO)cc21 the EC50 was 64 ± 25 nM (CFTR (Homo sapiens, UniProt P13569); ion current, potentiator, inside-out patch clamp; fully phosphorylated, added: 3 mM ATP).
